Measured values pooled from the literature.
Each line is one published result; not all experiments were run side by side.
Cell line: HepG2

For `CC1(C(=O)O)CCC2(C(=O)O)CCC3(C)C(=CCC4C5(C)CCC(O)C(C)(C)C5CCC43C)C2C1` (stereo not shown), the IC50 was 73.5 µM (cell growth or viability, MTT; 72 h).
With `CCCCCCN=Cc1[nH]c(-c2ccc[nH]2)cc1OC` the IC50 was 26.7 µM (cell growth or viability, resazurin).
`C#CCOc1ccc(C=NNC(=N)NN=Cc2ccc(OCC#C)cc2)cc1` has an IC50 of greater than 200 µM (cytotoxicity, resazurin; 24 h, 10% FBS).
`CCC1=C(C)C(c2ccc[nH]2)=NC1=CNC12CC3CC(CC(C3)C1)C2` has an IC50 of 4.5 µM (cell growth or viability, resazurin).
For `CC1(C)[C@@H](O)CC[C@]2(C)[C@H]3CC=C4[C@@H]5C[C@](C)(CO)CC[C@]5(C(=O)O)CC[C@@]4(C)[C@]3(C)CC[C@@H]12`, the IC50 was greater than 100 µM (cell growth or viability, MTT; 72 h).
`O=C(C1CCN(c2nnnn2-c2ccccc2)CC1)N1CCCc2ccccc21` has an IC50 of 40 µM (cell growth or viability, ATP luminescence; 72 h).
For `C=C1CC[C@]2(C(=O)O)CC[C@]3(C)C(=CC[C@@H]4[C@@]5(C)CC[C@H](O)C(C)(C)[C@@H]5CC[C@]43C)[C@@H]2C1`, the IC50 was 51.9 µM (cell growth or viability, MTT; 72 h).
The IC50 of `CC[C@@H](C)[C@@H]1NC(=O)[C@@H](Cc2ccccc2)NC(=O)[C@@H]2CCCN2C(=O)[C@H]([C@H](C)CC)NC(=O)[C@@H](Cc2ccccc2)NC(=O)[C@@H]2CCCN2C1=O` is reported as greater than 100 µM (cytotoxicity; 48 h).
For `COC1=CC(c2ccc[nH]2)=NC1=CNC1CCCCC1`, the IC50 was 15 µM (cell growth or viability, resazurin).
With `COC(=O)C1=Cc2ccccc2S1(=O)=O` the IC50 was 32.2 µM (cell growth or viability, WST-1; 24 h).

Repeated from above:
`C#CCOc1ccc(C=NNC(=N)NN=Cc2ccc(OCC#C)cc2)cc1` has an IC50 of greater than 200 µM (cytotoxicity, resazurin; 24 h, 10% FBS).
`CCC1=C(C)C(c2ccc[nH]2)=NC1=CNC12CC3CC(CC(C3)C1)C2` has an IC50 of 4.5 µM (cell growth or viability, resazurin).
